Assay results pooled from the literature.
Parts stem from different laboratories: compare values within a part only.

Set 1 — method: protein binding microarray; molecule type: double-stranded DNA, one strand shown; sample: in vitro; tested at: not given; relative to: not given; reading: higher = stronger binding
Target: Histone acetyltransferase KAT6A, winged helix 1, GST fusion (KAT6A, Homo sapiens, UniProt Q92794, residues 1-85)
Setting: 8-mer, flanks averaged, mean of 2 arrays, mostly near background
Target sequence (chain): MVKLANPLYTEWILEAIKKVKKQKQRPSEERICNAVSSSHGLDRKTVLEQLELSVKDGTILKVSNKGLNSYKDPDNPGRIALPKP
Oligonucleotide	E-score
GTAAGTGA	-0.0936
CCCGGGAC	0.309
AACGGTCT	-0.0336
ATATACGA	-0.0738
CGCGGTCA	0.354
CAACACAA	-0.308
CATGGGAG	-0.17
AGACAGTG	-0.101
ACCATGCC	0.194
TACCCCCA	-0.229
GGTCGCAA	0.126
TAAAAGCA	-0.126
ACCATTAG	-0.0624
ATGATGGA	-0.162
CGTACAAA	0.0971
GAATAGTA	-0.122
CCCAGGTA	-0.229
CCTTTCTA	0.0814
GTCGCAGA	0.141

Set 2 — method: RNA Bind-n-Seq; molecule type: RNA; sample: in vitro; tested at: 365 nM; relative to: no-protein control; reading: higher = stronger binding
Target: RNA binding protein fox-1 homolog 2, RRM domain, GST-SBP tag (RBFOX2, Homo sapiens, UniProt O43251-10, residues 100-194)
Setting: natural RNA segment, single round, ends assumed
Constant ends, left off below: GGGAGUUCUACAGUCCGACGAUC … UGGAAUUCUCGGGUGCCAA
Residues (chain): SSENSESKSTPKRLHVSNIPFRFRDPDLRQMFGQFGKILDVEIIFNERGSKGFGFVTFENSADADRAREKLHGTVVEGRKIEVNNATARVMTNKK
Oligonucleotide	RBNS enrichment (R)
GACGGAUGAUAUAUAAUGAUAAUAGAAUAGCACAUUCAGACUUACUUCCUGCAUGAUAGGGAGAGACAAGAAAGAAGAAAUGCUAUUCCACAAGGAAUCUCUUAGAGUUU	8.68
CUAAAAAUACAAAAAAAAAUUAGCUAGGCGUAGUGGUUGGCACCUAUAGUCCCAGCUACUCGGAAGGCUGAAGCAGGAGAAUGGUAUGAAUCCAGGAGGUGGAGCUUGCA	6.85
CAGUGUACAGAAACCUCCUCUGUCGUGGCUAGCAUUGAAGCUGGGGUGGAGAACCCGAGGUUAGUUGGGGGCAGACCCGCACAGUGGUAAUGCCGUCCAGUCUCUCCCAG	0.342
GAAUAUAUUUUUGUUAUGGCUGGUUACCCCAGCUCUUUUUCCCCUUGUGUGUGUGGUUCAAGUGUGCACUGGGAGGCAACUGAGGUCUGAAGCCAACCAUAUGCUCCUGC	0.413
AGCACACCUUCCCCGUCUGUCCCAGUAGGGGCUGGCGCUGGGGUUGGAGGCCGCUGGCCUGUGCUCUGGUGCAGAUGCUCUUACCCAGCUUCACUCAGGACCACCUUGGG	0.214
UAAUAAUUAAGUUAUGUGGAAAAAGUAAGGCUGGGGAAGUCGUGAUUAAUAGUUUUCAAAGGGCCAUUUUUUAAAAUCCUCUGGGCAUUUUCUUUCAGCUGUUUGUUAGU	0.934
UGGAAAAGGACUUUUUUCUUCACCUUCCUCUUUGCCUCAUGUGUACACACACACACACAUCUUGUACCCCAGACCUCUGGGUAUAAUUUUCAUAAUUGGUGCAGAAAGAA	0.742
UCUAUAUGCCCCUUAAUAGACUGUGGUUCCUGACGCACACUGUUAGGUCAUUAUUUUGUUGUACCAAAGUUCUAGUGGCUUCAGAAAUCAUAGCAUCCAAUGAUUUUUUG	0.581
CACAGCUGAAUCAGGAGACACAAAGAUGAGACUGUGUUUGGUUACAUUUUCCAAAGUUUCAUUGCAUUCUCCCUUGGGGAGGCUGUGAGAGAGGGCUUGUAUCCCUCUUG	0.264
AUGAGUGACCAUCCGUCCGAAUGUUCUCCCACUUCCUUCAGCCUCUCCUCGGCUUCUUGCACUGAGCUGGCCUCACGUGUUGACUGAGGGAGCCCCUGAGCCCCAACCUU	0.247
CACCACUAUGAAACAUUGACUUGCUAUUUCAAAUUCCUGGAUUCUAAGGAAUUUCUCAUCUGACAAUGGAACAGAAAUAGAAGCAUGGCCCCCACAGGCUGGGGACCAGU	0.662
UCAUCUGGGCAGCCAUUUUUCUUCUCUGCUUCUCUUGAGAUACAUAGUUAAAGUAGACACGGCCUCCCACGCGAGUGUGGUGGGACCUUGAGACUUAGGAGGAUUGCCUG	1.27

Set 3 — method: protein-binding microarray; molecule type: double-stranded DNA, one strand shown; sample: in vitro; tested at: 250 nM; setting: 60-bp whole probe; added: salmon DNA 0.4 mg/ml; relative to: random background probes; reading: higher = stronger binding; constant ends, left off below: GCCTAGCAC … GTCTTGATTCGCTTGACGCTGCTG
Target: Interferon regulatory factor 7, full length, phosphomimetic (IRF7, Homo sapiens, UniProt Q92985, residues 1-503, S101K/S471D/S472D/S475D/S476D/S477D/S483D/S484D/S487D)
Chain of UniProt Q92985 (whole entry, unmodified, looked up): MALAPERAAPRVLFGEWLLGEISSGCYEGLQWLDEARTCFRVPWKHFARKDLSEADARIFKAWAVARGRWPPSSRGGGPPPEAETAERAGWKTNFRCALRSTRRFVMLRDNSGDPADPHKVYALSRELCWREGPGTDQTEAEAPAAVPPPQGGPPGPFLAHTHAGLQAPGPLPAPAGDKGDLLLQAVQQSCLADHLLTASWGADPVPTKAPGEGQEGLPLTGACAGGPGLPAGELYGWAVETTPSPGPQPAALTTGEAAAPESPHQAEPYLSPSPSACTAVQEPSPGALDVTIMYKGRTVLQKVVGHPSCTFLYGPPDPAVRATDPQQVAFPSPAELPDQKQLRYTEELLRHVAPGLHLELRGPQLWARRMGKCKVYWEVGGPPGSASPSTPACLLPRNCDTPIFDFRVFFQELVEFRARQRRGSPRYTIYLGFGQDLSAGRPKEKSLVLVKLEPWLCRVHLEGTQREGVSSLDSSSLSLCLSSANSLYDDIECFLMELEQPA
Oligonucleotide	log fluorescence
TTAGGTATCGCCTTTCGGTTAGTGCTA	1.2 z-score
TGCTCTTTCTACATAGATGTGTGCTAG	0.798 z-score
GACGTACTGCTTATCCTGACGTGCTAG	0.0384 z-score
TAAGGTATCGGGACTGGGTTAGTGCTA	0.257 z-score
TTAGGACTGAGACTGGATTAGTGCTAG	-0.166 z-score
TTAGATTTCGGGTTTCAATTAGTGCTA	2.76 z-score
TTGTAAATCTTTTTCCCTATGTGCTAG	0.555 z-score
TCAATTTCCACTTTCTTACTGTGCTAG	2.63 z-score
GACGGTTACGACACTGGGGACGTGCTA	-0.279 z-score
GACGATCTCAGTCTCGATACGTGCTAG	0.779 z-score
TCAGACCTCGTCTCTATCACTGTGCTA	-0.343 z-score
TTAGGTTTCTGGTTTCGGTTAGTGCTA	10.6 z-score
AGGACTCTGGAGGTTGAGAAAGTGCTA	-0.791 z-score
TTAGGTCTCGGACTGGGTGAGTGCTAG	0.176 z-score
GACGGTATCGTTCTCGGGACGTGCTAG	0.801 z-score
TCATATTTAAGGCCTATGACTGTGCTA	0.561 z-score
CTCCTTCTCTAACCTCTCTAAGTGCTA	0.709 z-score
CACGATATCAGTATCGAGACGTGCTAG	0.446 z-score
GACGGTTTCGGCCTGGGGACGTGCTAG	2.88 z-score
TTAGAACTGAGTCTGGATTAGTGCTAG	-0.368 z-score
GACGATCCCAGTCTCGAGACGTGCTAG	0.626 z-score
TCTTTTTTTTCTTTAAAAGTGTGCTAG	1.3 z-score
TTAGGTTTCGGTCTCGGTTTGTGCTAG	9.9 z-score
TTAGTACTGGACTATCGGTTAGTGCTA	0.106 z-score

Set 4 — method: RNA Bind-n-Seq; molecule type: RNA; sample: in vitro; tested at: not given; relative to: input RNA pool; reading: higher = stronger binding
Target: RING finger protein unkempt homolog, zinc fingers 1-6, GST-SBP tag (UNK, Homo sapiens, UniProt Q9C0B0, residues 30-357)
Setting: RNA with constant flanks, human and mouse sites, ends assumed
Constant ends, left off below: GGGAGUUCUACAGUCCGACGAUC … CAACAGAGGAUUGAGCAUCA
Target sequence (chain): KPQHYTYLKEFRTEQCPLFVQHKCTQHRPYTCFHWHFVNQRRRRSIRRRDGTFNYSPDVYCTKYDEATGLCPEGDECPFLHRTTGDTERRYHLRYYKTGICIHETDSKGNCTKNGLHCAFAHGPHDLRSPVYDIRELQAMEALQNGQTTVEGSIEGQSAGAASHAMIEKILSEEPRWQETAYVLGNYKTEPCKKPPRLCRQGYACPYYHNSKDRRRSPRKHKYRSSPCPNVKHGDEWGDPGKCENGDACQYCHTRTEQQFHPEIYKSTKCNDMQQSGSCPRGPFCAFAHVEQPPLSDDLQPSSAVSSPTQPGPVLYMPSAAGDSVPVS
Oligonucleotide	bound/input enrichment
AGGAUAAACUAAGCCAUUUUAUGUAUUUUAUUUUAAACCUUAUUUUGGCAGAGUAAUUCCUUAGAAUUGGAAAAGCUGUUACUUUGAAAUUACCAAUUUAUUACAAAACAUAGAAAUGUA	2.85 ratio
GGGGUUCAGGGUGAGGAGAGCGCGGAGGGACUGUGUCCCAGUUGGUGGUGUGUGGGGUCUAUUAGUCUCAUCCAUGUCUGUUUGUCCUCAGCCCUGAGGUGCGCACCGAUAUCGAUAUUC	0.216 ratio
CAGACAGAAGUAGUGAUCCGAGACAUUGACGAGAGGGCUAUGGAAUUACUGAUUGACUUUGCGUAUACCUCCCAGAUAACAGUAGAAGAGGGCAAUGUUCAGACUCUUCUGCCAGCUGCU	0.152 ratio
GACUACUUCACUUGCAUAACUAAAGCUUAUGAAAUGUUGUCUGAUCCAGUGAAAAGGCGGGCAUUUAACAGUGUAGAUCCUACUUUUGACAACUCAGUUCCUUCUAAAAGUGAAGCUAAG	0.0634 ratio
GACAACUGCAGAGAAGUGAUCAUCACACCAAACUCUGCAUGGGGCGGAGAAGGCAGCCUUGGAUGUGGCAUUGGCUAUGGUUAUUUGCACCGAAUACCUACACGCCCCUUUGAAGAAGGA	0.172 ratio
AAGAAAGAGCAUGCAGCUAUCAUUCUUUGGAACACUACAUCUUGGAAACAGGUGCAGAAUUUAGUUUUCCACAGUUUGACAGUCACGCAGAUGGCCUUCUCACCUAAUGAGAAGUUCUUA	0.133 ratio
UUCUAAAAUGGGGCCAUGACGGGAACUGUGGUUGUAACCAAGCUGCUUGCCUGCAUCGAUUAACUCUCUCUGGGUUCCUGGGUGACUUCAUAUGAUGAGUGGAAACUACUAGUUGGUUUA	0.203 ratio
UCAUUUGGGCGUGUCAGAGAGUCGUUACCUGUCAAGUAUCACCUACAGAAUAAGACCGACUUAGUUCAAGAUGUAGAAAUUUCUGUGGAGCCCAGUGAUGCCUUCAUGUUCUCAGGUCUC	0.358 ratio
GGCAGUGUCCACCCCUCUGAUGUGUUGGAUAUGCCUGUGGAUCCCAACGAACCCACCUAUUGCCUUUGUCACCAGGUCUCCUAUGGAGAGAUGAUUGGCUGUGACAACCCUGAUUGUUCC	0.16 ratio
CAGCUACUGAAAUGCCGGGACACACCUUCAUACAGUGAGGGACGGUCACUCCAGCAUUGGCGGGUUGCUCAUCUGUAUUGAGUGCUGCGUUGUGCUCGUGUUGGUUGGUUUGGUCAGGGA	0.227 ratio
ACCUUUGAUCAGGCCACAGGUGGGACUGCGCAAUUUGAAGCACACUCAGAUGCUCAGGCUUUGGUCCUCUUAGAUGUCACUCCUGACCAGUCAAUGGUAGAUGAAGGAAUGGCUCGGGAA	0.204 ratio

For quick reference, copied from above (set 1):
Oligonucleotide	E-score
TAAAAGCA	-0.126
ACCATTAG	-0.0624
ATGATGGA	-0.162
CGTACAAA	0.0971
GAATAGTA	-0.122
CCCAGGTA	-0.229
CCTTTCTA	0.0814
